Assay results of several laboratories.
Protocols differ between the studies behind these lines. Several values in a cell are separate wells, animals, samples, runs or records.
Target: Ephrin type-A receptor 1 (EPHA1, Homo sapiens, UniProt P21709)

For `O=C(Cc1ccc(OCc2ccccc2)cc1)NC1(C(=O)O)CCN(C(=O)c2ccc(-c3cccc(Cl)c3)cc2)CC1`, “activity vs control” read 108% (enzyme activity, inhibitor; 10 µM).
With `COc1ccc(NC(=O)Nc2ccc3c(c2)C(=O)N(C(C)CO)CC(C)C(CN(C)Cc2ccc4c(c2)OCO4)O3)cc1` (centres unmarked) the remaining activity was 100% (kinase activity, KinaseProfiler; 0.03 µM, species human; relative to: control).
`COc1cc(Nc2nccc(-c3cnn4nc(OC)ccc34)n2)cc(C(F)(F)F)c1` gave a remaining binding of 100% (binding, competition with immobilised ligand; 1 µM).
The inhibition of `Cc1cccc(O[C@H]2CCC[C@@H](C(C)CNCc3ccncc3)C2)c1` (relative stereo) is reported as 0% (cell-free assay; 1 µM).
With `COc1c(Cl)cccc1Nc1c(-c2ccncc2C#C[C@@]2(C)CCCN2C(=O)/C=C/CN(C)C)[nH]c2c1C(=O)NCC2` the remaining binding was 69% (cell-free assay, competition with immobilised ligand; 3 µM).
For `Cc1cnc2nc1Nc1cccc(c1)COC/C=C/COCc1cc(ccc1OCCN1CCOCC1)N2`, the remaining binding was 82% (binding; 0.1 µM).
The inhibition of `C=CC(=O)Nc1cccc(-c2cnc3[nH]cc(C(=O)NC(C)(C)C)c3n2)c1` is reported as -7% and -6% (kinase activity; 0.1 µM).
With `CNC(=O)C1CCN(c2cc(C)c(F)cc2NC(=O)c2ccc(-c3cc(O)ccc3C)c(C)c2)CC1` the remaining binding was 3.9% (binding, competition with immobilised ligand; 1 µM).
For `C=CC(=O)Nc1cc(-c2nn(C3CCN(CCNC(=O)[C@H](C)CCC45CC6CC(CC(C6)C4)C5)CC3)c3ncnc(N)c23)ccc1Oc1ccccc1`, the inhibition was 12.4% (inhibitor, KiNativ profiling; biochemical; 2 µM).
`NC(=O)C[C@H]1CCc2sc3ncnc(O[C@H]4CC[C@H](N5CCOCC5)CC4)c3c21` has an inhibition of 9% (enzyme activity, inhibitor; 10 µM).
For `O=C=[N][Ru-4]123([n]4c5ccc(O)cc5c5c6c(c7cc(F)c[n+]1c7c54)C(=O)NC6=O)[S+]1CC[S+]2CC[S+]3CC1` (centres unmarked), the remaining activity was 107% (enzyme activity; 100 nM, human enzyme, with: 10 µM ATP; relative to: untreated).
`CN1CCN(Cc2ccc(-c3ccc(CO[C@H]4CCC[C@@H]4NC(=O)c4cc(-c5cnn(C)c5)cnc4N)cc3)cc2)CC1` has an inhibition of 1% (enzyme activity, inhibitor; 0.1 µM).
`Cc1ccc(-c2c(/C=C(\C#N)C(=O)NC(C)C)n(CCCO)c3ncnc(N)c23)cc1` has a remaining binding of 87% (cell-free assay, competition with immobilised ligand; 1 µM).
`CNC(=O)C[C@H](Cc1ccc(C#N)cc1)NC(=O)c1cc(-c2ccc(CN[C@H](C)c3ccc(C)cc3)o2)ccc1Cl`: “activity vs control” 106% (enzyme activity, inhibitor; 1 µM).

Repeated from above:
With `COc1ccc(NC(=O)Nc2ccc3c(c2)C(=O)N(C(C)CO)CC(C)C(CN(C)Cc2ccc4c(c2)OCO4)O3)cc1` (centres unmarked) the remaining activity was 100% (kinase activity, KinaseProfiler; 0.03 µM, species human; relative to: control).
`COc1cc(Nc2nccc(-c3cnn4nc(OC)ccc34)n2)cc(C(F)(F)F)c1` gave a remaining binding of 100% (binding, competition with immobilised ligand; 1 µM).
